Results from different studies.
Each line is one published result; not all experiments were run side by side. Values joined by “and” are separate records of one study, mostly repeats; a detail may differ. ± gives the spread as reported.

Structure (SMILES)	assay	test system	setting	scale	quantity	result
COC(=O)c1ccc2c(c1)NC(=O)/C2=C(\Nc1ccc2c(c1)CCN2C(=O)CN1CCOCC1)c1ccccc1	–	beagle dog, blood	intravenous	–	Vss relative to total body water	7.5
O=[11C](OC(C(F)(F)F)C(F)(F)F)N1CCC(CNS(=O)(=O)c2ccc(Cl)cc2)CC1	PET	rhesus monkey	90 min	–	brain uptake	~1 SUV
CC(C)[C@H](NC(=O)CNC(=O)[C@H](CCC(N)=O)NC(=O)[C@H](C)N)C(=O)O	–	human	across phase I studies	–	clearance	≥ 217 mL/min/kg
N[C@@H]1CCCC[C@H]1N.O=C1[O][Pt]2([O]C1=O)[O]C(=O)C(=O)[O]2	–	PBS	24 h, pH 6.0, 37 °C	–	decomposition	38%
CCCCCCNC(=O)[O][Pt]([NH2])([NH2])([Cl])([Cl])[O]C(=O)CCC(=O)Nc1ccc2c(C)cc(=O)oc2c1	fluorescence	PBS	10 µM, together with: ascorbic acid 10 equivalents	–	onset time of ligand release	≤ 4 h
CC1=N[C@H](C)Cc2c(-c3ccc(C)cc3)ccc(O)c21	metabolic stability	male rat, liver microsomes	1 µM, 30 min	–	compound remaining	< 7%
O=C(CCCCC[N+]#[C][99Tc-5]([C]#[N+]CCCCCC(=O)N[C@H]1C(O)O[C@H](CO)[C@@H](O)[C@@H]1O)([C]#[N+]CCCCCC(=O)N[C@H]1C(O)O[C@H](CO)[C@@H](O)[C@@H]1O)([C]#[N+]CCCCCC(=O)N[C@H]1C(O)O[C@H](CO)[C@@H](O)[C@@H]1O)([C]#[N+]CCCCCC(=O)N[C@H]1C(O)O[C@H](CO)[C@@H](O)[C@@H]1O)[C]#[N+]CCCCCC(=O)N[C@H]1C(O)O[C@H](CO)[C@@H](O)[C@@H]1O)N[C@H]1C(O)O[C@H](CO)[C@@H](O)[C@@H]1O (stereo partly drawn)	SPECT/CT	BALB/c nude mouse HCT-116 xenograft	2 h	reference: tumour over non-tumour	tumour/non-tumour ratio	4.73 ± 0.15
COCCOCCOCCOCCOCCOCCOCCOCCC(=O)NCCCc1cc2cc3nc(cc4[nH]c(cc5nc(c(OC)c1[nH]2)C(=O)C5(C)C)cc4CCc1ccc(C(=O)O)cc1)CC3(C)C	–	water with 5% DMF	room temperature	–	internal conversion yield	0.45
CC(C)c1cnc(-c2cc(Cl)ccc2F)cc1Nc1ccncc1C(=O)NC(CO)CO	–	human patients	oral, dose not given, worst grade 3	–	patients with any TRAE	28.6%
C[N+](C)(C)CC(CC(=O)[O-])OC(=O)CCC(=O)Nc1ccn([C@@H]2O[C@H](CO)[C@@H](O)C2(F)F)c(=O)n1 (stereo partly drawn)	–	THU-treated rat plasma	3200.00 ng/mL, 2 months, -80 °C, frozen storage, high QC	–	measured concentration	3090 ± 124 ng/mL
[123I]c1ccc2nc(-c3ccc(-n4ccnn4)nc3)cn2c1	–	male Wistar rat, brain	intravenous, 4 MBq, 1 h	–	tracer uptake	0.044 %ID/g
CC(C)[C@H](NC(=O)[C@@H]1CCCN1C(=O)[C@H](CCCNC(=N)N)NC(=O)[C@H](CS)NC(=O)[C@H](Cc1c[nH]c2ccccc12)NC(=O)[C@H](CCCNC(=N)N)NC(=O)[C@@H](Cc1ccccc1)NC(=O)[C@H](Cc1c[nH]cn1)NC(=O)[C@H](CCC(=O)O)NC(=O)[C@H](CS)NC(=O)[C@H](CS)NC(=O)COCCOCCNC(=O)[C@@H]1CC(=O)N[C@@H](CCCNC(=N)N)C(=O)NCC(=O)N[C@@H](CC(=O)O)C(=O)N[C@H](Cc2ccc(O)cc2)C(=O)N1)C(N)=O [technetium-99m labelled]	–	nude mouse, M21 melanoma xenograft, lung	intravenous, 2 h	–	tissue uptake	0.79 ± 0.53 %ID/g
CCCC(CCC)NC(=O)c1ccc(OC)c(OC2OC(C(=O)O)C(O)C(O)C2O)c1 (stereo not drawn)	LC-MS	Sprague-Dawley rats, pooled sexes, plasma	oral, 200 mg/kg of parent drug, 1 h	reference: total peak area	metabolite peak area	1.06%
OCc1cn(Cc2ccc(-c3noc(-c4ccc(OCC[18F])c(C(F)(F)F)c4)n3)cc2)nn1	–	female Lewis rat, kidney	intravenous, 30 min	–	tissue uptake	2.11 ± 0.08 %ID/g
Cc1ccc(OCC(=O)O)cc1	–	Sprague-Dawley rat, male, plasma	oral gavage, 100 mg/kg of parent drug	–	Tmax	1.5 h
O=C(c1cccc(N=Nc2ccc(OC3CC(N4CCCCC4)C3)cc2)c1)N1CCCC1 (stereo not drawn)	–	Tris-HCl buffer, 1% DMSO-d6	25 µM, pH 7.4, illumination 434 ± 9 nm	–	photoisomerization half-life	8 ± 0.6 s
CN1C(=O)c2cccc3c2C1=Cc1ccccc1N3Cc1cccc(NC2CCN([11CH3])CC2)c1	PET/CT	C57BL/6 mice, male, brain	intravenous, dose not given, baseline	–	SUVmax	0.07
CCCCCC(O)C=CC1OC2OC(C1CC=CCCCC(=O)O)C2(F)F (stereo not drawn)	–	50 mM HCl/KCl buffer with DMSO	concentration not given, pH 1.25	–	hydrolysis half-life	1.07 h
Cn1c(=O)c2c(nc(OC3CCN(C(=O)C4CC4)CC3)n2Cc2ccccc2Cl)n(C)c1=O	metabolic stability	rat, liver microsomes	–	–	half-life	0.35 h
Cc1[nH]c(/C=C2\C(=O)Nc3ccc(F)cc32)c(C)c1NC(=O)CCN1CCN(C)CC1	–	dog plasma	80 ng/mL nominal, three freeze-thaw cycles at -20 °C	–	measured concentration	75.5 ng/mL
Cc1cccc(O[C@H]2CCC[C@@H](C(C)CNCc3ccncc3)C2)c1 (relative stereo)	–	female C57BL/6J mice, plasma	intravenous, 3 mg/kg	–	Clast	1.02 ng/mL
C=CC(=C)CC[C@]1(C)[C@H](C)C[C@H](O)[C@@]23C(=C[C@H](OC(=O)C(C)C)C[C@@H]12)[C@@H](OC(C)=O)O[C@H]3OC(C)=O	haemolysis	–	20 µM	–	haemolysis	10.6%
COC(=O)c1ccc(-c2cn(Cc3cc(Cl)ccc3O[11CH3])nn2)cc1	PET, one-tissue compartment model	rhesus monkey, brain Putamen	dose not given	–	distribution volume	0.634 mL/cm³
COc1cc(N(C)CCN(C)C)c(NC(=O)CCSCC(N)C(=O)O)cc1Nc1nccc(-c2cn(C3CC3)c3ccccc23)n1 (stereo not drawn)	radio-HPLC	human, feces	dose not given, 0 to 48 h, sample holds 45.32% dose	reference: sample radioactivity	share of radioactivity	1.64%
CC(C)[C@H](NC(=O)[C@@H]1CCCN1C(=O)[C@H](CCCNC(=N)N)NC(=O)[C@H](CS)NC(=O)[C@H](Cc1c[nH]c2ccccc12)NC(=O)[C@H](CCCNC(=N)N)NC(=O)[C@@H](Cc1ccccc1)NC(=O)[C@H](Cc1c[nH]cn1)NC(=O)[C@H](CCC(=O)O)NC(=O)[C@H](CS)NC(=O)[C@H](CS)NC(=O)[C@@H]1CC(=O)N[C@@H](CCCNC(=N)N)C(=O)NCC(=O)N[C@@H](CC(=O)O)C(=O)N[C@H](Cc2ccc(O)cc2)C(=O)N1)C(N)=O [technetium-99m labelled]	–	C57 mouse, female, B16/F1 melanoma	intravenous, 0.037 MBq, 2 h	reference: tumour over lung	tumour to tissue ratio	10.5
[2H]C([2H])([2H])NC(=O)c1ccc(N2C(=S)N(c3ccc(C#N)c(C(F)(F)F)c3)C(=O)C2(C)C)cc1F	–	human, male	oral, 160 mg, single dose, fed	–	t1/2	131 ± 41.1 h
CCCCCCCCCCCCCCCC(=O)N[C@@H](CCCCN)C(=O)N[C@@H](CCCCN)C(=O)N[C@@H](CO)C(=O)N[C@@H](CCCNC(=N)N)C(=O)N[C@@H](C)C(=O)N[C@@H](CC(C)C)C(=O)N[C@@H](Cc1ccccc1)C(N)=O	–	cynomolgus monkey, male	30 mg/kg, day 5	–	activated partial thromboplastin time	33.7 ± 6.5 s
O=C([O-])CN1CCN(CC(=O)[O-])CCN(CC(=O)NCC2CCC(C(=O)NC(Cc3ccc4ccccc4c3)C(=O)NCCCCC(NC(=O)NC(CCC(=O)O)C(=O)O)C(=O)O)CC2)CCN(CC(=O)[O-])CC1.[44Sc+3] (stereo not drawn)	PET/CT dosimetry	human patients, salivary glands	mean of 4 patients	–	residence time	0.016 h
CC(C)C[C@@H](CN1CCC[C@H]1C(N)=O)NC(=O)[C@H](Cc1c[nH]cn1)NC(=O)CNC(=O)[C@@H](NC(=O)[C@H](C)NC(=O)[C@H](Cc1c[nH]c2ccccc12)NC(=O)[C@H](CCC(N)=O)NC(=O)[C@@H](Cc1ccccc1)NC(=O)COCC(=O)Nc1ccc(CNC(=O)CN2CCN(CC(=O)O)CCN(CC(=O)O)CCN(CC(=O)O)CC2)cc1)C(C)C [gallium-68 labelled]	radio-HPLC	mice, plasma	5 min post-injection	–	intact compound	96.3% and > 95%
Cn1c(=O)oc2ccc(-c3ccc(CC(C#N)NC(=O)C4CNCCCO4)c(F)c3)cc21 (stereo not drawn)	measured: alanine aminotransferase increased	human	60 mg single dose, fasted	–	subjects with TEAE	0%
